Measurements of several laboratories.
A part holds a random share of what one study measured. Substitutions count along the parent as printed.

Series 1
Target: Ras GTPase-activating protein-binding protein 1, C-terminal RGG region (G3BP1, Homo sapiens, UniProt Q13283)
Chain of UniProt Q13283 (whole entry, looked up): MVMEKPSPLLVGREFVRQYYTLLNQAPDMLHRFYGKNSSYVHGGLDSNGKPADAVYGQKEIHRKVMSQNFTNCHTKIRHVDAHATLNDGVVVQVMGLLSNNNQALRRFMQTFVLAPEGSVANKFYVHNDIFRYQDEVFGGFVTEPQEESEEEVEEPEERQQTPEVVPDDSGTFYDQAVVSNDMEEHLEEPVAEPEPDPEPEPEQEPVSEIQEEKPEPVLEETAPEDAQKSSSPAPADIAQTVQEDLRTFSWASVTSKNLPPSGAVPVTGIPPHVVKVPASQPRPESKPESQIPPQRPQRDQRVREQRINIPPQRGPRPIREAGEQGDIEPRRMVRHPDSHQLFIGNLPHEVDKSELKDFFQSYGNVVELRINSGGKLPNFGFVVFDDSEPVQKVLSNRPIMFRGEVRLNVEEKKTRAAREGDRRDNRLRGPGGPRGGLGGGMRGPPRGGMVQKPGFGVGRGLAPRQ
Method: RNA Bind-n-Seq
Molecule type: RNA
Matrix: in vitro
Tested at: 1 µM
Setting: whole 134-nt RNA, ends assumed
Together with: 150 mM KCl
Relative to: input library
Direction: higher = stronger binding
All sequences stand within: GGGAGUUCUACAGUCCGACGAUC … UGGAAUUCUCGGGUGUCAAGG
Oligonucleotide | log2 enrichment
AAGUCCUGUGCUACACAUCGUAUGUACCGAAUCGGAAAAAAAGGUUUUUUUGGUGGAAAGUAUUAUGUUACGCCGUUCGGAUCUGCACUU | -2.15
AAGUCCUGUGCUACACAUCGUAUGUACCGAAUCAAAUUUAAACCCAAAUUUUUAAAAAAGUAUUAUGUUACGCCGUUCGGAUCUGCACUU | -0.865
CAAGUCCUGUGCUACACAUCGUAUGUACCGAAUCGGGUGGGUUUUUUUGGGUGGGAAAGUAUUAUGUUACGCCGUUCGGAUCUGCACUUC | 0.444
UCCUGUGCUACACAUCGUAUGUACCGAAUCGGGGAGGGGAAAAAGGGGUUUUUUUGGGGAAAGUAUUAUGUUACGCCGUUCGGAUCUGCA | 1.57
AGUCCUGUGCUACACAUCGUAUGUACCGAAUCGGGGAGGGGAAAGGGGUUUUUGGGGAAAGUAUUAUGUUACGCCGUUCGGAUCUGCACU | 2.48
CCUGUGCUACACAUCGUAUGUACCGAAUCGGGUUUUUUUGGGUUUUUUUGGUUUUUUUGGGAAAGUAUUAUGUUACGCCGUUCGGAUCUG | -1.45
UGGCCCUGGUGGCAUGCGGGGAGGAAGAGGUGGCCUCAUGGAUCGUGGUGGACCCGGUGGAAUGUUCAGAGGUGGCCGUGGUGGAGACAG | 1.74
AAGUCCUGUGCUACACAUCGUAUGUACCGAAUCGGGUUUGGGUUUGGGGUUUGGGGAAAGUAUUAUGUUACGCCGUUCGGAUCUGCACUU | 2.33
UGACCCUGGUGGCAUGCGGGGAGGAAGAGGUGGCCUCAUGGAUCGUGGUGGUCCCGGUGGAAUGUUCAGAGGUGGCCGUGGUGGAGACAG | 2.22
UCAAGUCCUGUGCUACACAUCGUAUGUACCGAAUCGGGUGGGAAAGGGUUUGGGAAAGUAUUAUGUUACGCCGUUCGGAUCUGCACUUCC | 1.78
GAGGAGCUGCUGCUGGAGCCCGAGCCGGAGCCCGAGCCCGAAGAGGAGCCGCCCCGGCCCCGCGCCCCCCCGGGAGCUCCGGGCCCUGGG | -1.27
UAACUUUAGAGGAGGAUCUGAUGGAUAUGGCAGUGGACGUGGAUUUGGGGAUGGCUAUAAUGGGUAUGGAGGAGGACCUGGACGUGGCAA | -1.04
GCAGGAAGUAAAAACAAAUGGAAAUGCUUCGGAUAGUGGCAGGGGUGGGGUUUGCUAAGGAAAGGGUGGGAUGGGAGUGGGUAAAGAGUU | 1.75
AAGUCCUGUGCUACACAUCGUAUGUACCGAAUCGGGAAAAAAAGGGAGGGAAAGGGAAAGUAUUAUGUUACGCCGUUCGGAUCUGCACUU | 0.761

Series 2
Target: RING finger protein unkempt homolog, zinc fingers 1-6, GST-SBP tag (UNK, Homo sapiens, UniProt Q9C0B0, residues 30-357)
Chain of UniProt Q9C0B0 (30-357, looked up): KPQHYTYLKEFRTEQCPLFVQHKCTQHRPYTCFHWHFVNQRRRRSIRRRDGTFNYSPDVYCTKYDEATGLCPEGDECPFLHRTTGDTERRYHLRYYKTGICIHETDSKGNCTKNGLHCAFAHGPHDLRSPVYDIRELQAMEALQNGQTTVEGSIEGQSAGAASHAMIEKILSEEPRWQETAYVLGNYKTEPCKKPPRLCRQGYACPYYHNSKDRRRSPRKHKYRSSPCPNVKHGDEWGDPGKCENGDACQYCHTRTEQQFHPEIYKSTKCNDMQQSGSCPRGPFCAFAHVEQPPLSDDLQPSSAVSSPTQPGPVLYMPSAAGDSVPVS
Method: RNA Bind-n-Seq
Molecule type: RNA
Matrix: in vitro
Tested at: not given
Setting: RNA with constant flanks, human and mouse sites, ends assumed
Relative to: input RNA pool
Direction: higher = stronger binding
All sequences stand within: GGGAGUUCUACAGUCCGACGAUC … CAACAGAGGAUUGAGCAUCA
Oligonucleotide | bound/input enrichment [ratio]
GGGUCGCUGGCUCUGCUGCUGCCGCCGGCGAAGGAGGAGGCGUUGCCGGUUUUCUGAGUUUAACCAGUAAUGCCAUUCAGUUGCCAAUCUCAAGCAAAGCAAACAUAAGCCAGUUUUAAU | 0.139
AAACAAUUACUUUAUGAUUUCCCCUGGACAAAUGUUGGAAAAUUGGUGUUUGUGGGUAAGAAAUUUGAGAUUUUGCCAGAUGGCUUGCCUUCUGCCCGGAAGCUCAUAUACUACACGGGG | 0.201
CAGAUGAUUCUUGACAAGAAGUUUCAUGGGAUUUUGGACCAGGGGGAGGGUGUCCUGAUCAUUUUCGAUGAACCCCCAGUAGAUAAAACUUAUGAAGCUGCUCUGGAAACUAUUCAGAAC | 0.959
AAUUUGAUCUGGCUUCCAUUUGUCCCCCUCAUUUCCCAAAUGUUUAAAUGUAUUGGAUUUGGAUUCUCAAUGUAUAAGUUGCCUUAUCUGUUAAUGUCUAUCUUCUGUCUCUUUAAUUUU | 0.966
AAGUCGAUUACUAUCCUCUCUACUCCUGAAGGCACCUCUGCGGCUUGUAAGUCUAUUCUGGAGAUUAUGCAUAAGGAAGCUCAAGAUAUAAAAUUCACAGAAGAGAUCCCCUUGAAGAUU | 0.125
UUAACAAAAGAAUUCCCUGUAUCAUCUGGAUCUCAACAUCGGAAAAAAGAAGCGGAUAGUGUUUAUGGAGAAUGGGUUCCUGUGGAGAAAAAUGGUGAAGAAAACAAAGAUGAUGAUAAU | 0.554
UCCCACAUGAUGCUGGCCUUUACGAUGUGGAACCCUUGGAUUGCUAUGUGUCUUCUGGGACUCUCCUACUCAUUGCUUGCCUGUGCAUUGUGGCCAAUGGUGGCAUUUGUAGUUCCUGAA | 0.196
AAGCUCCCGAAGGCAUUAUACCCGGUCACGGUCUCGCUCCCGCUCCCAUAGACGAUCACGUAGCAGGUCUUACAGUCGAGAUUAUCGUAGACGGCACAGCCACAGCCAUUCUCCCAUGUC | 1.18
UUCAUUCAUGCUAAUGUUGACAUUGACUUAAUUAUCACAGAAGAACCUGAGAUUGGCAAUAUAGAAAAACCAGUAGAAAUUUUUCAUAUAAUAGAACAUUUUUGUCUUGGUAGAAGACGC | 38.3
AAGGAACUGGAAGUACCUCAUUUUCACCACGAGCUUGUAUAUGAAGCCAUUGUAAUGGUUUUAGAGUCAACUGGAGAAAGUGCAUUCAAGAUGAUCUUAGAUUUAUUAAAAUCCUUGUGG | 0.548
UUGGAGGAAGUAGGGCAGGGCCCUUAUCUGGAAAGAAGUUUGGAAACCCUGGGGAGAAAUUAGUUAAAAAGAAGUGGAAUCUUGAUGAGCUGCCUAAAUUUGAGAAGAAUUUUUAUCAAG | 2.94

Series 3
Target: Histone acetyltransferase KAT6A, winged helix 2, GST fusion (KAT6A, Homo sapiens, UniProt Q92794, residues 85-181)
Method: protein binding microarray
Molecule type: double-stranded DNA, one strand shown
Matrix: in vitro
Tested at: not given
Setting: 8-mer, flanks averaged, mean of 2 arrays, mostly near background
Relative to: not given
Direction: higher = stronger binding
Target sequence (chain): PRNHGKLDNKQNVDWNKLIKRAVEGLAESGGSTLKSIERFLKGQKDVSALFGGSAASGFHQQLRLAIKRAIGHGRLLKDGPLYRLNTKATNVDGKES
Oligonucleotide | E-score
CTCTCGTA | -0.0948
CGAAGCGA | 0.0833
ACGGATGG | 0.0224
CGGCTTTC | 0.152
ATAAAGCC | -0.231
GACGGACA | 0.0576
CGCCGGCC | 0.17
TCCTCTAA | -0.155
CGAAGCGC | 0.0456
CTGACGGC | 0.132
CTAATGAG | -0.127
AGCGGCAT | 0.127
TAGGTGAA | -0.0717
TGCGTCCA | 0.156
AGACGGGC | 0.121
ATCGGAAA | -0.0475
GTGGGGAA | 0.128
ACCTGTCT | -0.134
CCTAGAGA | -0.125
GAATCGAA | 0.0806
CAAACACG | -0.035
GACCTATC | -0.0214
GAGGACAC | -0.0344
GTAGCATA | 0.0177
AATATTAA | 0.203

Series 4
Target: RNA binding protein fox-1 homolog 2, RRM domain, GST-SBP tag (RBFOX2, Homo sapiens, UniProt O43251-10, residues 100-194)
Method: RNA Bind-n-Seq
Molecule type: RNA
Matrix: in vitro
Tested at: 365 nM
Setting: natural RNA segment, single round, ends assumed
Relative to: no-protein control
Direction: higher = stronger binding
All sequences stand within: GGGAGUUCUACAGUCCGACGAUC … UGGAAUUCUCGGGUGCCAA
Residues (chain): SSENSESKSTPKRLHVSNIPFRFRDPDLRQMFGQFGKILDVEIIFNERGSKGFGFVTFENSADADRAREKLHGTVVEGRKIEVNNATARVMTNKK
Oligonucleotide | RBNS enrichment (R)
CGAUUAGUUCAGGUUGGGUUUGGUUUUCUUCUUAAAGAGUUUAGUUUUCCUCUCCAGAGGGAUCAGGGUCCUCUUAGGGAGUGACGGGCUUUUCAUAUAUUUUUGCUGAA | 0.476
AAGUGAGAGCUUCCUGAGCUUUCUCCUGUCGGUUUGGUCUGUUUUGCCUUCACCCAUAAGCCCCUCGCACUCUGGUGGCAGGUGCCUUGUCCUCAGGGCUACAGCAGUAG | 0.413
CUCGGCGCUCCUUGUGUGGAGGCCAUUCUUUUUUCAAUGGGUAUCACAUGGUUUUGCCAUCCCUAAGUGAACAUCAUUCUGUCUUUGCUCAUGAGCUGGUCUAAUGCAGU | 0.403
GUCACUAUUGGGUGCAAGGAUAUCAUUGUUGGCUAGAUUCAUUUUGUAUAAUCAUGUAUCCUCUUGUGUGCUGGUAGAGAUUUUAAUCCUGAUUUUUCCAUAAAACAUGA | 0.506
GGGAACAACAGCCCGUGGAACAGUAAACCUCCCGCCACUCAAGAGACCAAAUCAGAAAACCCCCCACCCCAGGCUUCCCAAUAAGAUGAUCGGCACCAGAAUCCACUGUC | 1.47
AUUUCCUCUACCUUUCUGCUCUUAAACUGCUUCUCUGCUCUGAGAAGCCCAGCUACCUGCCUUCACUGAAAUAUACCUCAGGCUGAGACGGGCGGGACAGCAGGUCAGUG | 0.242
GUACAUAGGAAUCUAGCAAAUUCAGGAACCAAGGGGAAAUGUUGUGAGAUAACAUUUACAUUGUCAACCUUUAUUGACUUUGUUUUUACAAUAAAAAAUAUUUUACAACU | 0.45
UCCUUGGAGUCCUGUUCUUGCUCACGCCUUGUGGCUAUUUUGCCCUCAGAGUGCCCUGUAUCCUACAUUUGUACAUGUAAGUAAGAGUGGCUUCCUGUCUCUCAGGUGCA | 1.04
UCGUGAGUCAUUUUACUUUAAAAGGGAAAAACAAAUUUGUAGCAACUCUGAAGUAUCAAGAGUUUUAACUACUUGUCUCUCUUUUGCUAAGAAGGGAUUUUUGAAUAUGC | 0.414
UUGUGUAUUUCUCUGUGAAUCCAUGGGUCUGGCUAGAGGGCCCAAAGCUUGUAAAUAUGGGGAUAGUCUGGGUCAGACCCAUCUCUCCCUUACCCAUCUUGCUUCCAAGA | 1.06
UCCAUGUUUAUACCAAAUUGCACAAAGUAUAGACAUUGAGGUUAAUGGAGAUUUAAGCACAAUCCUAGCAAGUAAGUUUUAAGAAUACUGAAUAUUAUACAUUAUUGUAA | 2.41
GAAGCUACUAAUUUUAUGUCAAGCUUUAAAGUCCAUAAUUGUUAUCUUCAGAAAUAUUAUUUGACCUACAGUAUGUUUAAAUCAAUUUAAUAAAAUCACUUUAUAACAGG | 0.666

Series 5
Target: CCND3, cyclin fold, Cln2 fusion (human)
Method: yeast growth competition, sequencing
Matrix: yeast
Setting: weak parent motif
Relative to: not given
Direction: higher = stronger binding
Starting sequence: DTL docking peptide (human); PSSMRKICTYFHR
Change | normalised enrichment score
PSSMRKIATYFHR [C8A] | -0.322
PSSMAKICTYFHR [R5A] | -0.099
PSSMRKICAYFHR [T9A] | 0.0912
PSSMRKICTAFHR [Y10A] | 0.246
PSSMRKICTYFHA [R13A] | -0.175
PSSMRKACTYFHR [I7A] | -0.0909

Some of these lines once more (series 4):
Oligonucleotide | RBNS enrichment (R)
CGAUUAGUUCAGGUUGGGUUUGGUUUUCUUCUUAAAGAGUUUAGUUUUCCUCUCCAGAGGGAUCAGGGUCCUCUUAGGGAGUGACGGGCUUUUCAUAUAUUUUUGCUGAA | 0.476
UUGUGUAUUUCUCUGUGAAUCCAUGGGUCUGGCUAGAGGGCCCAAAGCUUGUAAAUAUGGGGAUAGUCUGGGUCAGACCCAUCUCUCCCUUACCCAUCUUGCUUCCAAGA | 1.06
UCCAUGUUUAUACCAAAUUGCACAAAGUAUAGACAUUGAGGUUAAUGGAGAUUUAAGCACAAUCCUAGCAAGUAAGUUUUAAGAAUACUGAAUAUUAUACAUUAUUGUAA | 2.41
GGGAACAACAGCCCGUGGAACAGUAAACCUCCCGCCACUCAAGAGACCAAAUCAGAAAACCCCCCACCCCAGGCUUCCCAAUAAGAUGAUCGGCACCAGAAUCCACUGUC | 1.47
GAAGCUACUAAUUUUAUGUCAAGCUUUAAAGUCCAUAAUUGUUAUCUUCAGAAAUAUUAUUUGACCUACAGUAUGUUUAAAUCAAUUUAAUAAAAUCACUUUAUAACAGG | 0.666
